# Measured values gathered from unrelated publications.
# Protocols differ between the studies behind these lines. Several values in a cell are separate wells, animals, samples, runs or records. Numbers after ± are the reported error.
SMILES,target or system,test,test system,setting,scale,quantity,value
CCOC(=O)/C=C/[C@H](C[C@@H]1CCNC1=O)NC(=O)[C@H](Cc1ccccc1)NC(=O)[C@H](COC(C)(C)C)NC(=O)OCc1ccccc1,"Genome polyprotein, 3C protease (Human poliovirus 1 Mahoney, UniProt P03300)","protease activity, cell-based reporter",poliovirus,,,FLuc reporter expression,increased
CC[C@H](C)[C@H](NC(=O)[C@H](CCCCN)NC(=O)[C@H](CCCCN)NC(=O)[C@H](CC(C)C)NC(=O)[C@H](Cc1c[nH]c2ccccc12)NC(=O)CN)C(=O)NCC(=O)N[C@@H](CCCCN)C(=O)N[C@@H](CCCCN)C(=O)N[C@H](C(=O)N[C@@H](CCC(=O)O)C(=O)N[C@@H](CCCNC(=N)N)C(=O)N[C@H](C(=O)NCC(=O)N[C@@H](CCC(N)=O)C(=O)N[C@@H](Cc1c[nH]cn1)C(=O)N[C@H](C(=O)N[C@@H](CCCNC(=N)N)C(=O)N[C@@H](CC(=O)O)C(=O)N[C@@H](C)C(=O)N[C@H](C(=O)N[C@H](C(=O)N[C@@H](CCC(N)=O)C(=O)N[C@H](C(=O)N[C@H](C(=O)NCC(=O)N[C@H](C(=O)N[C@@H](C)C(=O)N[C@@H](CCC(N)=O)C(=O)N[C@@H](CCC(N)=O)C(=O)N[C@@H](C)C(=O)N[C@@H](C)C(=O)N[C@@H](CC(N)=O)C(=O)N[C@H](C(=O)N[C@@H](C)C(=O)N[C@@H](C)C(=O)N[C@H](C(=O)N[C@@H](CC(C)C)C(=O)N[C@@H](CCCCN)C(N)=O)[C@@H](C)O)C(C)C)C(C)C)[C@@H](C)CC)[C@@H](C)O)[C@@H](C)CC)[C@@H](C)O)[C@@H](C)O)C(C)C)[C@@H](C)CC,Escherichia coli,broth microdilution,"ATCC 25922, CAMHB",,,MIC,4 µg/mL
CC[C@H](C)[C@H](N)C(=O)N[C@@H](CC(N)=O)C(=O)N[C@@H](CC(N)=O)C(=O)N[C@H](C(=O)N1C[C@@H](n2cc([C]34[CH]5[CH]6[CH]7[CH]3[Fe]6754389%10[CH]4[CH]3[CH]8[CH]9[CH]4%10)nn2)C[C@H]1C(=O)N[C@@H](Cc1cn(C)c2ccccc12)C(N)=O)[C@@H](C)CC (stereo partly drawn),"Envelope glycoprotein gp160, gp120 (env, Human immunodeficiency virus type 1 group M subtype B, UniProt P35961, S370A)",ITC,,gp120 S375A mutant,,−TΔS,0.4 ± 0.1 kcal/mol
CC(C)C[C@H](NC(=O)[C@H](CO[C@@H]1O[C@H](CO)[C@@H](O[C@@H]2O[C@H](CO)[C@H](O)[C@H](O)[C@H]2O)[C@H](O)[C@H]1O)NC(=O)[C@H](CCCCN)NC(=O)[C@H](CC(C)C)NC(=O)CNC(=O)[C@H](CCCCN)NC(=O)[C@H](CCC(=O)O)NC(=O)[C@H](C)NC(=O)[C@H](CC(C)C)NC(=O)[C@H](CC(N)=O)NC(=O)[C@@H]1CCCN1C(=O)[C@H](CC(C)C)NC(=O)[C@H](Cc1ccccc1)NC(=O)CNC(=O)[C@H](NC(=O)[C@@H](N)Cc1ccc(O)cc1)[C@H](C)O)C(N)=O,"OPRK1 (Homo sapiens, UniProt P41145)","ligand displacement, radioligand",,"pH 7.5, cell membranes",,Ki,13 nM
CS(=O)(=O)NCC1CCOC2(CCN(C(=O)C3(c4ccccc4)CCCCC3)CC2)C1 (stereo not drawn),"Polyprotein P1234, nsP2 (Chikungunya virus, UniProt Q8JUX6)","nsP2 ATPase activity, inhibitor, ADP-Glo",,high micromolar,,nsP2 ATPase inhibition,active
CC[C@H](C)[C@@H]1NC(=O)[C@H](CCCNC(=N)N)NC(=O)[C@H](CO)NC(=O)[C@H](CCC(=O)O)NC(=O)[C@H](CC(=O)O)NC(=O)CNC(=O)CNC(=O)[C@H]([C@@H](C)O)NC(=O)[C@H](Cc2ccccc2)NC(=O)[C@H](CO)NC(=O)[C@H]([C@@H](C)O)NC(=O)[C@H](C)NC(=O)[C@@H]2CSSC[C@@H](C(=O)N[C@@H](Cc3ccc(O)cc3)C(=O)N[C@@H](Cc3ccccc3)C(=O)N[C@H](C(=O)N[C@H](C(=O)NCC(=O)O)[C@@H](C)O)[C@@H](C)O)NC(=O)[C@H]([C@@H](C)O)NC(=O)[C@H](CSSC[C@H](NC(=O)[C@H](CCC(=O)O)NC(=O)[C@H](CO)NC(=O)[C@H](CCCCN)NC(=O)[C@H](Cc3ccc(O)cc3)NC(=O)[C@@H]3CCCN3C(=O)[C@H](Cc3ccccc3)NC(=O)[C@H](CCCCN)NC(=O)[C@H](CCCNC(=N)N)NC(=O)[C@H](CCCCN)NC(=O)[C@H](CCCCN)NC(=O)[C@H](Cc3ccc(O)cc3)NC(=O)[C@@H]3CCCN3C(=O)[C@@H](NC(=O)[C@H](CC(=O)O)NC(=O)[C@H](CCCCN)NC(=O)[C@H](CCCCN)NC(=O)[C@@H](NC(=O)[C@@H](NC(=O)[C@@H](N)CCC(=O)O)C(C)C)[C@@H](C)CC)[C@@H](C)O)C(=O)N[C@@H](CC(C)C)C(=O)N[C@@H](CCCCN)C(=O)N[C@@H](C)C(=O)N2)NC(=O)[C@H](CCCCN)NC(=O)[C@H](Cc2ccccc2)NC(=O)[C@H](Cc2ccccc2)NC(=O)CNC(=O)[C@@H]2CCCN2C(=O)[C@H](CCCCN)NC(=O)CNC(=O)[C@H](CCC(=O)O)NC(=O)[C@H](CCC(N)=O)NC1=O,"KCNQ4 (Homo sapiens, UniProt P56696, D266G)","potassium current, whole-cell patch clamp",HEK-293T,,,Hill slope,2.11 ± 0.09
CC(C)(C)OC(=O)C[C@H](NC(=O)OCc1ccccc1)C(=O)CBr,"Replicase polyprotein 1ab, main protease (rep, Severe acute respiratory syndrome-related coronavirus, UniProt P0C6X7)",isothermal titration calorimetry,,"pH 7.4, 25 °C, 2% DMSO",,Gibbs free energy of binding,-8.3 kcal/mol
CCCCCCCCCCCCCCCC(=O)N[C@@H](CCC(=O)NCCOCCOCCC(=O)NCCOCCOCCC(=O)NCCCC[C@H](NC(=O)[C@H](CC(=O)O)NC(=O)[C@H](CC(C)C)NC(=O)[C@H](Cc1ccc(O)cc1)NC(=O)[C@H](CCCCN)NC(=O)[C@H](CO)NC(=O)[C@H](Cc1ccc(O)cc1)NC(=O)[C@H](CC(=O)O)NC(=O)[C@H](CO)NC(=O)[C@@H](NC(=O)[C@H](Cc1ccccc1)NC(=O)[C@@H](NC(=O)CNC(=O)[C@H](CCC(N)=O)NC(=O)[C@@H](CO)NC(=O)[C@@H](N)Cc1c[nH]cn1)[C@@H](C)O)[C@@H](C)O)C(=O)N[C@@H](CCCNC(=N)N)C(=O)N[C@@H](CCCNC(=N)N)C(=O)N[C@@H](C)C(=O)N[C@@H](CCC(N)=O)C(=O)N[C@@H](CC(=O)O)C(=O)N[C@@H](Cc1ccccc1)C(=O)N[C@H](C(=O)N[C@@H](CCC(N)=O)C(=O)N[C@@H](Cc1c[nH]c2ccccc12)C(=O)N[C@@H](CC(C)C)C(=O)N[C@@H](CC(C)C)C(=O)N[C@@H](CC(N)=O)C(=O)N[C@H](C(=O)NCC(=O)NCC(=O)N1CCC[C@H]1C(=O)N[C@@H](CO)C(=O)N[C@@H](CO)C(=O)NCC(=O)N[C@@H](C)C(=O)N1CCC[C@H]1C(=O)N1CCC[C@H]1C(=O)N1CCC[C@H]1C(=O)N[C@@H](CO)C(N)=O)[C@@H](C)O)C(C)C)C(=O)O,,measured: ALP,"Sprague-Dawley rat, female","subcutaneous, 20 µg/kg once daily, 14 days",,serum enzyme activity,69.1 ± 9.3 U/L
COc1cc([N+](=O)[O-])cc(/C=N/NC(=O)[C@H]2COc3ccccc3O2)c1O,"uncharacterized protein (Candidatus Liberibacter solanacearum, UniProt A0A094YYW1)",,,,,kon,26.9 M⁻¹ s⁻¹
O=C(O[C@H]1Cc2c(O)cc(O)cc2OC1c1cc(O)c(O)c2c(=O)c(O)cc(C3Oc4cc(O)cc(O)c4C[C@H]3O)cc12)c1cc(O)c(O)c(O)c1 (stereo partly drawn),"Replicase polyprotein 1a, main protease (Severe acute respiratory syndrome-related coronavirus, UniProt P0C6U8)",3CL protease activity,,10 µM,,activity,active
O=C(C=Cc1ccc(O)c(O)c1)OC1CC(O)(C(=O)O)CC(OC(=O)C=Cc2ccc(O)c(O)c2)C1O (stereo not drawn),"Spike glycoprotein (Severe acute respiratory syndrome coronavirus 2, UniProt P0DTC2)","binding, BLI",,,,kon,2510 M⁻¹ s⁻¹
CC(=O)N[C@@H](Cc1cn(CCO[C@@H]2O[C@H](CO)[C@H](O)[C@H](O)[C@H]2O)nn1)C(N)=O,"ctxB, pentamer (Vibrio cholerae, UniProt P01556)",,,concentration not given,reference: galactose,inhibition potency,10 fold
Cc1ccc(N)cc1C(=O)NC1(c2ccc3c4c(cccc24)CC3)CC1,"Replicase polyprotein 1a, papain-like protease (Severe acute respiratory syndrome coronavirus 2, UniProt P0DTC1)",binding,,10 µM,,thermal shift (ΔTm),11.6 °C and 12.2 °C and 12.6 °C
CC(C)C[C@@H]1NC(=O)[C@H](CCCNC(=N)N)NC(=O)[C@@H]2CCCN2C(=O)[C@@H]2CSSC[C@H](NC(=O)CNC(=O)[C@@H]3CCCN3C(=O)[C@H](CCCCN)NC(=O)[C@H](CC(=O)O)NC(=O)[C@@H](NC(=O)CN)C(C)C)C(=O)N[C@@H](CCCNC(=N)N)C(=O)N[C@@H](Cc3ccc(O)cc3)C(=O)N[C@@H](CC(C)C)C(=O)N[C@@H](Cc3ccccc3)C(=O)NCC(=O)NCC(=O)N[C@H]3CSSC[C@H](NC(=O)CNC1=O)C(=O)N[C@@H](CCCCN)C(=O)NCC(=O)N[C@@H](CCCCN)C(=O)NCC(=O)N[C@@H](Cc1c[nH]cn1)C(=O)N[C@@H](CC(=O)O)C(=O)N[C@@H](Cc1ccc(O)cc1)C(=O)N[C@H](C(=O)N[C@@H](C)C(=O)N[C@@H](Cc1c[nH]c4ccccc14)C(=O)N[C@@H](CC(=O)O)C(=O)NCC(=O)N[C@H](C(=O)N[C@@H](Cc1ccccc1)C(=O)N[C@@H](CO)C(=O)N[C@@H](CC(=O)O)C(=O)O)[C@@H](C)O)CSSC[C@H](NC(=O)[C@H](CC(=O)O)NC(=O)[C@H](CC(=O)O)NC(=O)[C@H](CC(=O)O)NC(=O)[C@H](CO)NC(=O)[C@H](CCCCN)NC3=O)C(=O)N2,"SCN9A (Homo sapiens, UniProt Q15858)",manual patch clamp,HEK293,1 µM,,activation V0.5,-10.6 ± 1.7 mV
C[n+]1cc(NC(=O)c2cccc(C(=O)Nc3cc4ccccc4[n+](C)c3)n2)cc2ccccc21.[I-].[I-],tick-borne encephalitis virus,"binding, thiazole orange or ThT displacement",,"concentration not given, TBEV-5",,probe displacement,~100%
